Results of several laboratories.
Each line is one published result; not all experiments were run side by side.
TYK2 JH1: Non-receptor tyrosine-protein kinase TYK2, JH1 (TYK2, Homo sapiens, UniProt P29597)
TYK2 JH1 domain: Non-receptor tyrosine-protein kinase TYK2, JH1 domain (TYK2, Homo sapiens, UniProt P29597)
TYK2 JH2: Non-receptor tyrosine-protein kinase TYK2, JH2 (TYK2, Homo sapiens, UniProt P29597)

Structure (SMILES)	target	effect on	method	tested at	reference	remaining binding [%]
CNC(=O)C1CCN(c2cc(C)c(F)cc2NC(=O)c2ccc(-c3cc(O)ccc3C)c(C)c2)CC1	TYK2 JH1	binding	competition with immobilised ligand	1 µM	–	47
CC(=O)N1c2ccc(-c3ccc(CNC(=O)c4cn5cc(-c6cnc(N)nc6)nc(N6CCOCC6)c5n4)cc3)cc2CC[C@@H]1C	TYK2 JH1 domain	–	KINOMEscan	10 µM	–	88
COc1cc(Nc2nccc(-c3cnn4nc(OC)ccc34)n2)cc(C(F)(F)F)c1	TYK2 JH2	binding	competition with immobilised ligand	1 µM	–	100
CC(C)=CC1OC(C)(C)C2C=C3C(=O)C(Cl)=CC(O)C3C3C(O)C4OC4C(=O)C132 (stereo not drawn)	TYK2 JH2	cell-free assay	competition with immobilised ligand	10 µM	–	59
Nc1ncc2c(n1)-c1c([nH]c3ccc(C4=CCOCC4)cc13)CCC2	TYK2 JH2	binding	competition with immobilised ligand	1 µM	–	1.1
Cc1ccc(-c2c(/C=C(\C#N)C(=O)NC(C)C)n(CCCO)c3ncnc(N)c23)cc1	TYK2 JH1	cell-free assay	competition with immobilised ligand	1 µM	–	100
Cc1c[nH]c2nccc(-c3ccc(C(=O)N[C@@H]4c5c(F)cc(C(F)F)cc5C[C@@H]4O)cn3)c12	TYK2 JH1	binding	competition with immobilised ligand	3 µM	–	5.8
CCN1CCN(Cc2ccc(C(=O)Nc3ccc(C)c(NCc4cnc5[nH]ccc5c4OC)c3)cc2C(F)(F)F)CC1	TYK2 JH1	binding	competition with immobilised ligand	1 µM	–	60
CNC1C[S+]2CC[S+]3CC[S+](C1)[Ru-4]321([N]=C=S)[n]2c3ccc(OC)cc3c3c4c(c5cc(F)c[n+]1c5c32)C(=O)NC4=O (stereo not drawn)	Non-receptor tyrosine-protein kinase TYK2, JH2 pseudokinase domain (TYK2, Homo sapiens, UniProt P29597)	–	KinomeScan	0.1 µM	untreated	87
COc1c(Cl)cccc1Nc1c(-c2ccncc2C#C[C@@]2(C)CCCN2C(=O)/C=C/CN(C)C)[nH]c2c1C(=O)NCC2	TYK2 (Homo sapiens, UniProt P29597)	binding	competition with immobilised ligand	3 µM	–	65
CN1CCN(Cc2ccc(NC(=O)c3cccc(C#Cc4cnc(N)c5ncccc45)c3)cc2C(F)(F)F)CC1	TYK2 JH1	cell-free assay	competition with immobilised ligand	0.5 µM	–	4.6
CCN1CCN(Cc2ccc(NC(=O)c3ccc(C)c(NC(=O)c4cncc(-c5cnn(C)c5)c4)c3)cc2C(F)(F)F)CC1	TYK2 JH1	binding	competition with immobilised ligand	1 µM	–	100
COc1cc(Nc2nc(C)cc(-c3cnn4nc(OC)ccc34)n2)cc(C(F)(F)F)c1	TYK2 JH2	binding	competition with immobilised ligand	1 µM	–	90
C=CC(=O)N1CCCC(n2c(=O)c3ncccc3n(Cc3ccc(Oc4ccccc4)cc3)c2=O)C1 (stereo not drawn)	TYK2 JH1	cell-free assay	competition with immobilised ligand	1 µM	–	74
C=CC(=O)N1CCc2ccc(-n3c(=O)ccc4cnc5ccc(-c6cnn(C)c6)cc5c43)cc21	TYK2 JH1 domain	–	KINOMEscan	1 µM	DMSO control	100
